Published values collected from several papers.
± gives the spread as reported.
gag-pol reverse transcriptase: Gag-Pol polyprotein, reverse transcriptase (gag-pol, Human immunodeficiency virus 1, UniProt P03366)
Uncharacterized protein: Uncharacterized protein (Equus caballus, UniProt Q38RB9)
Cytochrome P450 2A13: Cytochrome P450 2A13 (Homo sapiens, UniProt Q16696)
Chain of UniProt Q16696 (whole entry, looked up): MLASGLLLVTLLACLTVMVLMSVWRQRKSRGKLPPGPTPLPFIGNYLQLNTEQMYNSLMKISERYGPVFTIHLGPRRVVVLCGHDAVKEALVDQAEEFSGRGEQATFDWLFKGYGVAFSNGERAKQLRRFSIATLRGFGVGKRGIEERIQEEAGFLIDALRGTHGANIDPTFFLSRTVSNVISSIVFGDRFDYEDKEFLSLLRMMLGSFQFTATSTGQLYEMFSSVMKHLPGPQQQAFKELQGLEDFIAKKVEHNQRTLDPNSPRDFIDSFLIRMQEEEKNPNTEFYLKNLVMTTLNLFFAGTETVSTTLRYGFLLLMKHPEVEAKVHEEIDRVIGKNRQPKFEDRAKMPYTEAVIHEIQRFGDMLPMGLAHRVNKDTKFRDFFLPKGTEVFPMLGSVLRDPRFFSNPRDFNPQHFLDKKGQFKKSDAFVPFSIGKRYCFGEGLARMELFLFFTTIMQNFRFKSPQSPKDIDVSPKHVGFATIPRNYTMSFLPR
Chain of UniProt Q14994 (whole entry, looked up): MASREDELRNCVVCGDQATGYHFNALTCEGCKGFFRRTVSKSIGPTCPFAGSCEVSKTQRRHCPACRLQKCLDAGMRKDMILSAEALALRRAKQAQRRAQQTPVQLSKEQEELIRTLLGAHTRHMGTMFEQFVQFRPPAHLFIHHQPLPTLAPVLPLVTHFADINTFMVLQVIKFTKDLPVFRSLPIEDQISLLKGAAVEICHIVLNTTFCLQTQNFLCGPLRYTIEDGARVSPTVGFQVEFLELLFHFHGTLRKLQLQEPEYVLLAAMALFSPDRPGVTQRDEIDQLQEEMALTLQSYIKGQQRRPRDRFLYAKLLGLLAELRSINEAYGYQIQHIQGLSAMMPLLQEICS
Chain of UniProt Q62645 (whole entry, looked up): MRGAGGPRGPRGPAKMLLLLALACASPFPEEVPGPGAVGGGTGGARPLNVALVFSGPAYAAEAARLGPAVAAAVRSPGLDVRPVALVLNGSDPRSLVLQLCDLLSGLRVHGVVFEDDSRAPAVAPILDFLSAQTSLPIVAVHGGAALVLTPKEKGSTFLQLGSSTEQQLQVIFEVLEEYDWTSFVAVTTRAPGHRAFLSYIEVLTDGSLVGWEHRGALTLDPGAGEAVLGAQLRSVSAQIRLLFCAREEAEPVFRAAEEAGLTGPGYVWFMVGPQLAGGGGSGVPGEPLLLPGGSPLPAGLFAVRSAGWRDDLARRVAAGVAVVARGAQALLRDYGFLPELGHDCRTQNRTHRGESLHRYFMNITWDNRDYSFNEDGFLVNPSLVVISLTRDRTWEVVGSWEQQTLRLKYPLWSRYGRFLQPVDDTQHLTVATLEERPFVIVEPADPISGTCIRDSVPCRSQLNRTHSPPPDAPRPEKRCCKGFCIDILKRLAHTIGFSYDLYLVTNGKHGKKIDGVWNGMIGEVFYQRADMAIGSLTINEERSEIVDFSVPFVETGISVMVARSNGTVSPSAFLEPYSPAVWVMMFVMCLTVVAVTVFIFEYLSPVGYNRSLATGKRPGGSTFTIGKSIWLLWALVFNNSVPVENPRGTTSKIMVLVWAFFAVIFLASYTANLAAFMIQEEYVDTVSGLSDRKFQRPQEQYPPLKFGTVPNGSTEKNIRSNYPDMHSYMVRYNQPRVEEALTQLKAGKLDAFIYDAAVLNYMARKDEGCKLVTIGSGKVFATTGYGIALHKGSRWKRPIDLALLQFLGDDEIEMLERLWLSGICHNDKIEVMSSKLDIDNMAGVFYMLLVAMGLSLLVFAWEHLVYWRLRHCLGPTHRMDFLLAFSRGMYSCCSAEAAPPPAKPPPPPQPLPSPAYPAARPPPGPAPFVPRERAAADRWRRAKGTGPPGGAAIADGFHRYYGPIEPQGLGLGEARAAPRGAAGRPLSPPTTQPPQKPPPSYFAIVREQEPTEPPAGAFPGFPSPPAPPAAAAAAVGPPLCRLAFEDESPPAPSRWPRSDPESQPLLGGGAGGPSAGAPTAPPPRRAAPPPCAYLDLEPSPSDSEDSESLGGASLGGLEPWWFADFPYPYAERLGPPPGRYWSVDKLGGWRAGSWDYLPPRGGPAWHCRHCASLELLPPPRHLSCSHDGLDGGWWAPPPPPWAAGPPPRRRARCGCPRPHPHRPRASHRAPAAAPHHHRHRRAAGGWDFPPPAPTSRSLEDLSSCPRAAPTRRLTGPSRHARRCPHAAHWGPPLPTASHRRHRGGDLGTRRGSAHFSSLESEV
Chain of UniProt Q00987 (whole entry, looked up): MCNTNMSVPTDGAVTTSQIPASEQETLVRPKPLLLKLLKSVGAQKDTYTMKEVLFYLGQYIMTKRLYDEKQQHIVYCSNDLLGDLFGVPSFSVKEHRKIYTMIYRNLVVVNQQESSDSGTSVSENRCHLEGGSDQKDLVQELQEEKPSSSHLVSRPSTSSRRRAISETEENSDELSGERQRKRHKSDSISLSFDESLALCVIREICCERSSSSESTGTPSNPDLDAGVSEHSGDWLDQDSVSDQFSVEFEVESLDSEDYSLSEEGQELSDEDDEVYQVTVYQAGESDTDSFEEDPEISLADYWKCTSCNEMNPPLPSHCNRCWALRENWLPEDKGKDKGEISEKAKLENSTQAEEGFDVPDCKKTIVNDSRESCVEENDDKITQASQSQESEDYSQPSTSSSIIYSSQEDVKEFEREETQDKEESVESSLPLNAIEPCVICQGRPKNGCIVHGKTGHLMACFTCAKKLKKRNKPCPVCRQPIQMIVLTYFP
Chain of UniProt P00441 (whole entry, looked up): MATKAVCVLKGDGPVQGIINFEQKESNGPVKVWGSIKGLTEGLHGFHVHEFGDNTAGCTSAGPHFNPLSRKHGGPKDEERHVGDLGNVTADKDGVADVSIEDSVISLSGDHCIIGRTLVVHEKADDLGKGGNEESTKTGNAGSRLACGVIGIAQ
Chain of UniProt Q8BHN3 (whole entry, looked up): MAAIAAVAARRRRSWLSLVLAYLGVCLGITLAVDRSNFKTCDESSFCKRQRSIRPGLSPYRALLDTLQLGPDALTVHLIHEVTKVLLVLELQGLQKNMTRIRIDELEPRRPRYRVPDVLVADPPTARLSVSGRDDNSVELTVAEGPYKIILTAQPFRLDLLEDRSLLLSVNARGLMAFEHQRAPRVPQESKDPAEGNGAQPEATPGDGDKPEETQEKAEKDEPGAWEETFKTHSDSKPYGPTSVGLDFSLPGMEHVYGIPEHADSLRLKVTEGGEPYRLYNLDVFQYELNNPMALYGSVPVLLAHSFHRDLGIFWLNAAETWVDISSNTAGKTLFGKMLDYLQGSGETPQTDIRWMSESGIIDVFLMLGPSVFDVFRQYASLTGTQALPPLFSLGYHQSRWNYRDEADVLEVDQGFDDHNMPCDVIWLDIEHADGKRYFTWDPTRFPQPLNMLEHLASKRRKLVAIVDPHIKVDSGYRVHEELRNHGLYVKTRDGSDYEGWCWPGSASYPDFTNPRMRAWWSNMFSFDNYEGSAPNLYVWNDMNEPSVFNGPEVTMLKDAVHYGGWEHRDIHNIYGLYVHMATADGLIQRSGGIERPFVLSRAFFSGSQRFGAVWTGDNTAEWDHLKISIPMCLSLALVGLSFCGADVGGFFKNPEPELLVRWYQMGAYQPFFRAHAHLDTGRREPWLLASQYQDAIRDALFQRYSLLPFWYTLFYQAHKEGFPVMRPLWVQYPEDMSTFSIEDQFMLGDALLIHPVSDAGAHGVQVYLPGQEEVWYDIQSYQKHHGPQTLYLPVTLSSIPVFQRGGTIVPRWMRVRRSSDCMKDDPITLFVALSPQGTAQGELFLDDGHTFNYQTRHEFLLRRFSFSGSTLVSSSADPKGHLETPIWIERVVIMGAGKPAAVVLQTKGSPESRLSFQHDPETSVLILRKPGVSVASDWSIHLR

| Structure (SMILES) | target | assay | test system | conditions | IC50 |
| --- | --- | --- | --- | --- | --- |
| CCOC(=O)[C@H]1Cc2c(cc([N+](=O)[O-])cc2[N+](=O)[O-])[C@@H](O)[C@@]12C(=O)Nc1c(F)cccc12 | MDM2 (Homo sapiens, UniProt Q00987) |  |  |  | 770 ± 90 nM |
| O=C(O)CC(F)(F)C(=O)N1N=C(c2c(-c3ccc(Cl)cc3)c3ccccc3[nH]c2=O)C[C@H]1c1ccc(Cl)cc1 | Ionotropic glutamate receptor NMDA 1/2D (Rattus norvegicus, UniProt P35439+Q62645) | ion current, inhibitor, two-electrode voltage clamp | Xenopus oocytes | with: glycine and aspartate | 17 nM |
| O=C(O[C@@H]1Cc2c(O)cc(O)cc2O[C@@H]1c1cc(O)c(O)c(O)c1)c1cc(O)c(O)c(O)c1 | Superoxide dismutase [Cu-Zn], fully metallated (SOD1, Homo sapiens, UniProt P00441) | enzyme activity, inhibitor, XTT |  |  | > 75000 nM |
| CO[C@H]1C[C@H](O[C@@H]2/C(C)=C/C[C@@H]3C[C@@H](C[C@]4(CC[C@H](C)[C@@H](C5CCCCC5)O4)O3)OC(=O)[C@@H]3C=C(C)/C(=N/O)[C@H]4OC/C(=C\C=C\[C@@H]2C)[C@]43O)O[C@@H](C)[C@@H]1O | Nuclear receptor subfamily 1 group I member 3 (Homo sapiens, UniProt Q14994) | biochemical |  |  | 2760 ± 990 nM |
| O=C1CSC(c2cccc(Cl)c2)N1c1nc(-c2ccc(S(=O)(=O)N3CCOCC3)cc2)cs1 (centres unmarked) | gag-pol reverse transcriptase |  |  |  | 2360 nM |
| CC[C@H](C)[C@H](NC(=O)[C@@H](NC(=O)[C@@H](NC(=O)[C@H](CCCCN)NC(=O)[C@H](CC(N)=O)NC(=O)[C@H](CCCCN)NC(=O)[C@H](CCSC)NC(=O)[C@H](CC(=O)O)NC(=O)CN)C(C)C)C(C)C)C(=O)O | Uncharacterized protein | peptide binding, competitor, competitive radioligand binding | purified horse MHC class I | pH 7 | 16 nM |
| O=C1CSC(c2cccc(Cl)c2)N1c1cccc(S(=O)(=O)Nc2nccs2)c1 (centres unmarked) | gag-pol reverse transcriptase |  |  |  | 2050 nM |
| O=[N+]([O-])c1cc(-n2nccn2)ccc1NCCCCCCN[C@H]1C[C@](O)(CO)[C@@H](O)[C@H](O)[C@H]1O | Ganab (Mus musculus, UniProt Q8BHN3) | enzyme activity, inhibitor |  | with: 4-methylumbelliferyl substrate | < 1 nM |
| c1cc2ccc3cccc4ccc(c1)c2c34 | Cytochrome P450 2A13 | enzyme activity, inhibitor |  | 20 min, pH 7.4 | 15000 to 80000 nM |
| COc1cc(Nc2ncc(F)c(Nc3ccc4c(n3)NC(=O)C(C)(C)O4)n2)cc(OC)c1OC | imidazoline I2 receptor |  | central |  | > 10000 nM |
| OC1C=C2c3ccccc3-c3cccc(c32)C1O (centres unmarked) | Cytochrome P450 2A13 | enzyme activity, inhibitor |  | 20 min, pH 7.4 | > 180000 nM |
| CO[C@]1([C@@H]2CSC(=O)N2C(=O)c2ccccc2)C[C@H]2C[C@@H](CC[C@H](C)/C=C\C=C\CC/C(C)=C\C(=O)O2)O1 | Actin, alpha skeletal muscle, pyrene-labeled (ACTA1, Oryctolagus cuniculus, UniProt P68135) | actin polymerization, pyrene actin |  |  | 834 ± 109 nM |
| CC[C@H](C)[C@H](NC(=O)[C@H](CCSC)NC(=O)[C@@H](NC(=O)[C@@H](NC(=O)[C@H](CCCCN)NC(=O)[C@H](CCCCN)NC(=O)[C@H](CO)NC(=O)[C@H](Cc1ccc(O)cc1)NC(=O)[C@H](CC(=O)O)NC(=O)[C@@H](N)CCCCN)C(C)C)[C@@H](C)O)C(=O)O | Uncharacterized protein | peptide binding, competitor, competitive radioligand binding | purified horse MHC class I | pH 7 | 16 nM |
| CCCC[C@H]1C(=O)N(C)[C@@H](CCCC)C(=O)N[C@@H](CC(C)C)C(=O)N[C@H](C(=O)NCC(N)=O)CSCC(=O)N[C@@H](Cc2ccc(O)cc2)C(=O)N(C)[C@@H](C)C(=O)N[C@@H](CC(N)=O)C(=O)N2[C@@H](C[C@@H]3CCCC[C@@H]32)C(=O)N[C@@H](Cc2c[nH]cn2)C(=O)N[C@@H](CC(C)C)C(=O)N2C[C@H](O)C[C@H]2C(=O)N[C@@H](Cc2c[nH]c3ccccc23)C(=O)N[C@@H](CCN)C(=O)N[C@@H](Cc2cn(CC(=O)O)c3ccccc23)C(=O)N1C | CD274 (Homo sapiens, UniProt Q9NZQ7) | PD-1/PD-L1 binding, inhibitor, TR-FRET |  |  | 20.4 nM |

Excerpt of the above:
| Structure (SMILES) | target | assay | test system | conditions | IC50 |
| --- | --- | --- | --- | --- | --- |
| O=[N+]([O-])c1cc(-n2nccn2)ccc1NCCCCCCN[C@H]1C[C@](O)(CO)[C@@H](O)[C@H](O)[C@H]1O | Ganab (Mus musculus, UniProt Q8BHN3) | enzyme activity, inhibitor |  | with: 4-methylumbelliferyl substrate | < 1 nM |
